{"data": "Published values of several laboratories", "note": "Numbered parts are unrelated; each lists some results of a single study.", "UniProt P51451, sequence (whole entry, looked up)": "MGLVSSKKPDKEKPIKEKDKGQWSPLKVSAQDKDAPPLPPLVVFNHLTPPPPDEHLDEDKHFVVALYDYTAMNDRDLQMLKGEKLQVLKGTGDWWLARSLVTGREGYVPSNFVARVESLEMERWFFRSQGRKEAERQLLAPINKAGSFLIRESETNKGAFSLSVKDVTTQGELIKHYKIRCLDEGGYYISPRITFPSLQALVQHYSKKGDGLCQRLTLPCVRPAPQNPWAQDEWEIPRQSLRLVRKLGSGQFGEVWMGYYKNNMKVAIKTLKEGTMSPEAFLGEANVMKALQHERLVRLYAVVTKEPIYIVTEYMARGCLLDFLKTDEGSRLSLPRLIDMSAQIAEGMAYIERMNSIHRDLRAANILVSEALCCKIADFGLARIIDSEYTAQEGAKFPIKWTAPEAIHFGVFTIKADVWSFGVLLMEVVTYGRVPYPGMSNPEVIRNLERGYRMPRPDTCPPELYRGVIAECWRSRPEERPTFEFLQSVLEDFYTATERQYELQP", "UniProt P07332, sequence (whole entry, looked up)": "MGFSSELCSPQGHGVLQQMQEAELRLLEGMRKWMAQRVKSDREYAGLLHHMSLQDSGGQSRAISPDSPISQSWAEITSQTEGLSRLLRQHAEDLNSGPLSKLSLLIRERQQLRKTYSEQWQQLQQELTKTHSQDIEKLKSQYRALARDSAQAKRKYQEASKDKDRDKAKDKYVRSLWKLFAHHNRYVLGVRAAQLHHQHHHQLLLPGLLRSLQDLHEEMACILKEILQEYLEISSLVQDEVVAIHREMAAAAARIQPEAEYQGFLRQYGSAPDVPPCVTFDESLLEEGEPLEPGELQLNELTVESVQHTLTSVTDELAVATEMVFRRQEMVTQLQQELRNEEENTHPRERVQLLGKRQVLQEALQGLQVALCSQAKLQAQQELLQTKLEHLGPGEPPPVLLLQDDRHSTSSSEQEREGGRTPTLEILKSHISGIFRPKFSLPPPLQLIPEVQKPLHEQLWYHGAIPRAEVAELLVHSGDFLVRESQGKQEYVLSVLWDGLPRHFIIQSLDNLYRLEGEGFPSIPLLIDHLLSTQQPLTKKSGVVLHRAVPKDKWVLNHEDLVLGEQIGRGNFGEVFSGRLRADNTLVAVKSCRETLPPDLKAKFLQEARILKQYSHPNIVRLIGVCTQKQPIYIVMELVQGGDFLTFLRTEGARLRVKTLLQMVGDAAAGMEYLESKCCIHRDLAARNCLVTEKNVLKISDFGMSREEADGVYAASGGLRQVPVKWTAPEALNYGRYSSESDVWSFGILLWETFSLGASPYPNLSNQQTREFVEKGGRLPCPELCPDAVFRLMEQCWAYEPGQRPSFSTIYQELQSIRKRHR", "UniProt Q04771, sequence (whole entry, looked up)": "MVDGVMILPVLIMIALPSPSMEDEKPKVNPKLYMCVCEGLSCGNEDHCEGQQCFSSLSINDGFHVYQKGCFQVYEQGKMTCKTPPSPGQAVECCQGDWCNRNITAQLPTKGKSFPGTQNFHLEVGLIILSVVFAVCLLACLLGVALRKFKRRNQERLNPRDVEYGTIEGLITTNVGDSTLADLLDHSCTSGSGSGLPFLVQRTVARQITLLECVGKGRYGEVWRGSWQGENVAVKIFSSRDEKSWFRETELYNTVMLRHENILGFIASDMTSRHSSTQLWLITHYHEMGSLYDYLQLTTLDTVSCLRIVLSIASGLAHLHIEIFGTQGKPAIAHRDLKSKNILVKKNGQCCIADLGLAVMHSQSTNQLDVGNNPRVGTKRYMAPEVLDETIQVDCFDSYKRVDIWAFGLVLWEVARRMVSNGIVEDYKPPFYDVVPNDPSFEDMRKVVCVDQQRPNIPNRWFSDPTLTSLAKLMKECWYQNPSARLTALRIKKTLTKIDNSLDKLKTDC", "UniProt P54764, sequence (whole entry, looked up)": "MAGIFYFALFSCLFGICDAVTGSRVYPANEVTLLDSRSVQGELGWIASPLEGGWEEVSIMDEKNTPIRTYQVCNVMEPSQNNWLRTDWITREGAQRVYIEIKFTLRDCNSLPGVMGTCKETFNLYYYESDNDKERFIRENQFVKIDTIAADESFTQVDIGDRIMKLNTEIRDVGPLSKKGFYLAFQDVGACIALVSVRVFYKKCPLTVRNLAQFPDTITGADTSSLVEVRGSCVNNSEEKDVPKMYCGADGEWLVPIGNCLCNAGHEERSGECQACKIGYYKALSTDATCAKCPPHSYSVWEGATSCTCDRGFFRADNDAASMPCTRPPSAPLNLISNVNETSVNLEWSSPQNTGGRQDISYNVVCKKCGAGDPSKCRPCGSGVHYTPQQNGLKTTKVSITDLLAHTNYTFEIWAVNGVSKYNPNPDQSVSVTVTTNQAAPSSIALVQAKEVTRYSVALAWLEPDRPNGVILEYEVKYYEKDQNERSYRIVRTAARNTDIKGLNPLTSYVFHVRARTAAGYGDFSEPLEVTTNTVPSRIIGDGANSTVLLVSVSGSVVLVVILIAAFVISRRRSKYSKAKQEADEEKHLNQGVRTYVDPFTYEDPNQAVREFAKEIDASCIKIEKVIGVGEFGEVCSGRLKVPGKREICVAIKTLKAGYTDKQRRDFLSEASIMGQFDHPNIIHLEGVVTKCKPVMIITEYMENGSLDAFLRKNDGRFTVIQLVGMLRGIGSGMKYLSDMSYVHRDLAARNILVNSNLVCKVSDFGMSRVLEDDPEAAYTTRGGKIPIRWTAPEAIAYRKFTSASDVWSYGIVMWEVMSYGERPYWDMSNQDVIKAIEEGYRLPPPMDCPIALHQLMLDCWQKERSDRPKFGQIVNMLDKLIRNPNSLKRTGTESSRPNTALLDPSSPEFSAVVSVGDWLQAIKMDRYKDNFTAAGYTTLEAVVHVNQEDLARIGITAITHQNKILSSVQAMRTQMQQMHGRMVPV", "UniProt Q00534, sequence (whole entry, looked up)": "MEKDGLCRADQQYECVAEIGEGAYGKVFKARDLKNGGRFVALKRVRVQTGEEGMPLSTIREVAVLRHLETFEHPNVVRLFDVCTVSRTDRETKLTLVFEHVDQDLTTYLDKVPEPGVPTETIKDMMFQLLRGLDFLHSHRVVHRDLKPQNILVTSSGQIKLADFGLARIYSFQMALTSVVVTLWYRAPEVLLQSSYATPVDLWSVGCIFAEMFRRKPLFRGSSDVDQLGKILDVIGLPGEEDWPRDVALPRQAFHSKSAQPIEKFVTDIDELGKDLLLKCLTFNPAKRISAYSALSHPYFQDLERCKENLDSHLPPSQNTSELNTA", "UniProt P00519, sequence (whole entry, looked up)": "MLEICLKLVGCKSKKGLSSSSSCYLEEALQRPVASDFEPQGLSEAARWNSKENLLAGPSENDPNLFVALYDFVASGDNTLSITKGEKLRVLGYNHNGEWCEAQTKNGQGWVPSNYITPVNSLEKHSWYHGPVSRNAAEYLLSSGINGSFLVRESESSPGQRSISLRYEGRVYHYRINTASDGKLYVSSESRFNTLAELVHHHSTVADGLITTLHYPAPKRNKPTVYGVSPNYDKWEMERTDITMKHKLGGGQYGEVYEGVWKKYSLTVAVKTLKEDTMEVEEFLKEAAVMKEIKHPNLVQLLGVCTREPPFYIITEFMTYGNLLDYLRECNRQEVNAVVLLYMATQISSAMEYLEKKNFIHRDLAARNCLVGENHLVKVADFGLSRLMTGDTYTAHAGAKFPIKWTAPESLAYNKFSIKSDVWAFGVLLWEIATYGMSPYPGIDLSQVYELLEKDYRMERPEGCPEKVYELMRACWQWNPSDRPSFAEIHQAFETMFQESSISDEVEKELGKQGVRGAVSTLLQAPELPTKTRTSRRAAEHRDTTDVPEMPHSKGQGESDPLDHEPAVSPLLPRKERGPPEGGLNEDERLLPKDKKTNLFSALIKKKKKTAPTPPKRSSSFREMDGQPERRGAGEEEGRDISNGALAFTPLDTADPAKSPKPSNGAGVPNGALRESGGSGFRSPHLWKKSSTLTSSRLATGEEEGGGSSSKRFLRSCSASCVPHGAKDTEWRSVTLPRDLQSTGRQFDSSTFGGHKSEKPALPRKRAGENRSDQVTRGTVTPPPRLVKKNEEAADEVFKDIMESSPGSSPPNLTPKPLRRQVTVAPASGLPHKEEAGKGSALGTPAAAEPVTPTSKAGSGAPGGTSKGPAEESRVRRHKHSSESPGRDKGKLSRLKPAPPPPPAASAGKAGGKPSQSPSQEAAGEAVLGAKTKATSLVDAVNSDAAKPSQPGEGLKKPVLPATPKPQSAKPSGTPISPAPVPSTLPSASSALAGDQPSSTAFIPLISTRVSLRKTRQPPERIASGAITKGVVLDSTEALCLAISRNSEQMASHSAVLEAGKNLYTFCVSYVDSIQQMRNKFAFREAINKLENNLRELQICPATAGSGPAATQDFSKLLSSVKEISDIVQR", "UniProt O75716, sequence (whole entry, looked up)": "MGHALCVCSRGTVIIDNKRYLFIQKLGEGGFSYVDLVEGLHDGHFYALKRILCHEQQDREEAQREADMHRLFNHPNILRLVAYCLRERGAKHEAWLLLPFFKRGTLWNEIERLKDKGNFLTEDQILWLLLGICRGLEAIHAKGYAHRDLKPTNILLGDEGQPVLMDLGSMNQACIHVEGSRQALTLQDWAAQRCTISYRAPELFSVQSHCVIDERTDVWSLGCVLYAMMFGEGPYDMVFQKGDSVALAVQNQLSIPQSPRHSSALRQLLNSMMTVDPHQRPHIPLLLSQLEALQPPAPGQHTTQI", "UniProt P22612, sequence (whole entry, looked up)": "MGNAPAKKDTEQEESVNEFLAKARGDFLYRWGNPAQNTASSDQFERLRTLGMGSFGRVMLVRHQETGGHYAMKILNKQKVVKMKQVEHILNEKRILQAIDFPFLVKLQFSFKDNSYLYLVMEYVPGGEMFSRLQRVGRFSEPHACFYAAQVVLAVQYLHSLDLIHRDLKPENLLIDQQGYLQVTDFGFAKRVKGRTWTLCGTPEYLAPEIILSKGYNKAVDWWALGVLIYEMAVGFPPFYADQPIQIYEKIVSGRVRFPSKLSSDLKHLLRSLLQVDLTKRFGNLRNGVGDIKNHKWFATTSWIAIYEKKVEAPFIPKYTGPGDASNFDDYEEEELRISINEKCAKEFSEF"}
{"data": "Series 1", "SMILES": "Clc1ccc(Nc2nnc(Cc3ccncc3)c3ccccc23)cc1", "read-out": "enzyme activity", "mode": "inhibitor", "concentration": "0.5 µM", "baseline": "control"}
{"target": "PRKACG (Homo sapiens, UniProt P22612)", "remaining activity [%]": 116}
{"target": "MAPKAPK3 (Homo sapiens, UniProt Q16644)", "remaining activity [%]": 98.9}
{"target": "MAP4K4 (Homo sapiens, UniProt O95819)", "remaining activity [%]": 107}
{"target": "SRMS (Homo sapiens, UniProt Q9H3Y6)", "remaining activity [%]": 91.8}
{"target": "PDPK1 (Homo sapiens, UniProt O15530)", "remaining activity [%]": 88.3}
{"target": "WNK3 (Homo sapiens, UniProt Q9BYP7)", "remaining activity [%]": 99.1}
{"target": "RPS6KA5 (Homo sapiens, UniProt O75582)", "remaining activity [%]": 85.5}
{"target": "RPS6KA6 (Homo sapiens, UniProt Q9UK32)", "remaining activity [%]": 99.7}
{"target": "Cyclin-dependent kinase 6, with cyclin D3 (CDK6, Homo sapiens, UniProt Q00534)", "remaining activity [%]": 125}
{"target": "HIPK4 (Homo sapiens, UniProt Q8NE63)", "remaining activity [%]": 95.9}
{"target": "BLK (Homo sapiens, UniProt P51451)", "remaining activity [%]": 105}
{"target": "STK16 (Homo sapiens, UniProt O75716)", "remaining activity [%]": 93.5}
{"target": "EPHB4 (Homo sapiens, UniProt P54760)", "remaining activity [%]": 85.1}
{"target": "TSSK2 (Homo sapiens, UniProt Q96PF2)", "remaining activity [%]": 82.8}
{"target": "Cyclin-dependent kinase 1, with cyclin B (CDK1, Homo sapiens, UniProt P06493)", "remaining activity [%]": 104}
{"target": "PHKG1 (Homo sapiens, UniProt Q16816)", "remaining activity [%]": 94.2}
{"target": "ABL1 (Homo sapiens, UniProt P00519)", "remaining activity [%]": 96.5}
{"target": "Cyclin-dependent kinase 4, with cyclin D3 (CDK4, Homo sapiens, UniProt P11802)", "remaining activity [%]": 102}
{"target": "DYRK3 (Homo sapiens, UniProt O43781)", "remaining activity [%]": 95.9}
{"target": "EPHA4 (Homo sapiens, UniProt P54764)", "remaining activity [%]": 102}
{"data": "Series 2", "SMILES": "CCCCN(CCCC)C(=O)CN1C[C@@H](c2cc(OC)c3c(c2)OCO3)[C@H](C(=O)O)[C@H]1CC(C)(C)CCC", "read-out": "cell-free assay", "technique": "competition with immobilised ligand", "concentration": "1 µM"}
{"target": "EGFR (Homo sapiens, UniProt P00533, del752-759)", "remaining binding": "100%"}
{"target": "NEK1 (Homo sapiens, UniProt Q96PY6)", "remaining binding": "100%"}
{"target": "PRKCH (Homo sapiens, UniProt P24723)", "remaining binding": "0%"}
{"target": "STK32A (Homo sapiens, UniProt Q8WU08)", "remaining binding": "100%"}
{"target": "PRKCD (Homo sapiens, UniProt Q05655)", "remaining binding": "98.2%"}
{"target": "FLT4 (Homo sapiens, UniProt P35916)", "remaining binding": "100%"}
{"target": "FES (Homo sapiens, UniProt P07332)", "remaining binding": "100%"}
{"target": "BLK (Homo sapiens, UniProt P51451)", "remaining binding": "100%"}
{"target": "MAP2K3 (Homo sapiens, UniProt P46734)", "remaining binding": "89.5%"}
{"target": "PIK3CA (Homo sapiens, UniProt P42336, E542K)", "remaining binding": "100%"}
{"target": "SIK3 (Homo sapiens, UniProt Q9Y2K2)", "remaining binding": "74.8%"}
{"target": "WEE1 (Homo sapiens, UniProt P30291)", "remaining binding": "84.8%"}
{"target": "IGF1R (Homo sapiens, UniProt P08069)", "remaining binding": "97%"}
{"target": "ACVR1 (Homo sapiens, UniProt Q04771)", "remaining binding": "100%"}
{"target": "FGFR2 (Homo sapiens, UniProt P21802)", "remaining binding": "83.2%"}
{"target": "EPHA1 (Homo sapiens, UniProt P21709)", "remaining binding": "85.5%"}
{"target": "Ribosomal protein S6 kinase alpha-1, N-terminal kinase domain (RPS6KA1, Homo sapiens, UniProt Q15418)", "remaining binding": "91.3%"}
{"data": "Series 3", "species": "mouse", "medium": "microsomes or S9", "concentration": "2 µM", "time": "0.5 h"}
{"Compound": "O=C(CN1C(C(=O)c2ccccc2)=C(O)c2ccccc2S1(=O)=O)Nc1ccc(Br)cc1F", "remaining compound [%]": 25.9}
{"Compound": "O[C@@H]1C[C@@H](c2nnc3n2CCN(Cc2cccc4[nH]ccc24)C3)N(Cc2ccccc2)C1", "remaining compound [%]": 2.29}
{"Compound": "CNC(=O)[C@@H]1C[C@H](Oc2ccccc2)CN1C1CCN(C(=O)NC(C)C)CC1", "remaining compound [%]": 69.1}
{"Compound": "Cc1cc(C)c(C)c(S(=O)(=O)NCCOCCO)c1C", "remaining compound [%]": 1.34}
{"Compound": "Cn1c2c(c3cc(O)ccc31)C=NC(Cc1ccccc1)C(=O)N2 (centres unmarked)", "remaining compound [%]": 86.8}
{"Compound": "COCCCn1cnnc1C(C)NC(=O)c1cnn[nH]1 (centres unmarked)", "remaining compound [%]": 0}
{"Compound": "CCCNC1=Nc2ccccc2S(=O)(=O)N1CCC", "remaining compound [%]": 3.75}
{"Compound": "O=c1[nH]ccc2c(Cc3nnc4ccc(-c5cccc6c5oc5ccccc56)nn34)cccc12", "remaining compound [%]": 56.9}
{"Compound": "COC(=O)c1ccc(C2Nc3cc(C)c(C)cc3NC3=C2C(=O)CC(C)(C)C3)cc1 (centres unmarked)", "remaining compound [%]": 0.113}
{"data": "Single results of other studies"}
{"SMILES": "NC1C(O)O[C@H](CO)C(O[C@@H]2O[C@H](CO)C(O[C@@H]3O[C@H](CO)[C@@H](O)[C@H](O)[C@H]3N)[C@H](O)C2N)C1O (some centres unmarked)", "cell line": "A-375", "conditions": "100 µM, 60 h", "endpoint": "viability", "value": "99.5%"}
{"note": "Some of these lines once more (series 2):"}
{"target": "NEK1 (Homo sapiens, UniProt Q96PY6)", "remaining binding": "100%"}
{"target": "PRKCH (Homo sapiens, UniProt P24723)", "remaining binding": "0%"}
{"target": "STK32A (Homo sapiens, UniProt Q8WU08)", "remaining binding": "100%"}
